# Experimental data pooled from the literature.
# Protocols differ between the studies behind these lines. “And” joins repeats or separate records; there may be more than shown. ± marks the error that the study gave.
Structure (SMILES),test,test system,conditions,how to read,endpoint,value
O=C(O)CCCOc1ccc(F)cc1-c1cc(-c2ccccc2C(F)(F)F)n(-c2ccccc2)n1,,"Crl:CD(SD) rat, female","intravenous, 25 µg/kg, 14 days post-dose",,albumin fraction of serum protein,52.6 ± 3.3%
CO[C@H]1C[C@@H]2CC[C@@H](C)[C@@](O)(O2)C(=O)C(=O)N2CCCC[C@H]2C(=O)O[C@H]([C@H](C)C[C@@H]2CC[C@@H](OC(=O)NCCOCCOCCOCCOCCOCCOCCOCCOCCC(=O)N3CCc4cc(Cn5nc(-c6ccc7oc(N)nc7c6)c6c(N)ncnc65)ccc4C3)[C@H](OC)C2)C[C@@H](O)[C@H](C)/C=C(\C)[C@@H](O)[C@@H](OC)C(=O)[C@H](C)C[C@H](C)/C=C/C=C/C=C/1C,"phase 1 dose escalation, measured: mucositis",advanced solid tumour patients,"intravenous, 6 mg weekly, grade ≥3",,TRAE incidence,8.3%
COc1cc2c(Oc3ccc4[nH]c(C)cc4c3F)ccnc2cc1OCC1(N)CC1,,paediatric recurrent refractory sarcoma,"concentration not given, whole group",,grade 1 or 2 Neutropenia,11.8%
CC(C)[C@@H]1NC(=O)CNC(=O)[C@H](CC(N)=O)NC(=O)[C@H](CCCNC(=N)N)NC(=O)[C@H](Cc2ccc(O)cc2)NC(=O)[C@H](C(C)C)NC(=O)[C@@H](NC(=O)[C@@H](NC(=O)[C@H](CC(N)=O)NC(=O)[C@H](Cc2c[nH]c3ccccc23)NC(=O)[C@H](C)NC(=O)[C@H](Cc2ccccc2)NC(=O)CN)C(C)C)CSSC[C@@H](C(=O)N[C@@H](Cc2cnc[nH]2)C(=O)N[C@@H](CCCNC(=N)N)C(=O)N[C@@H](CCCNC(=N)N)C(=O)N[C@@H](C)C(=O)N[C@@H](CC(N)=O)C(N)=O)NC(=O)[C@H](C(C)C)NC(=O)[C@H](CCCNC(=N)N)NC1=O,,"ICR mice, serum","intraperitoneal, 5 mg/kg, day 5",,calcium,1.38 ± 0.02 mmol/L
Cc1cccc(-c2cccc(C)n2)n1.Cc1cccc(-c2cccc(C)n2)n1.F[P-](F)(F)(F)(F)F.F[P-](F)(F)(F)(F)F.[Ru+2].c1ccc2cc(-c3nc4c5cccnc5c5ncccc5c4[nH]3)ccc2c1,,aerated acetonitrile,298 K,reference: Ru(bpy)3(PF6)2,singlet oxygen quantum yield,0
COc1cc2c(cc1OC)CN(CCc1ccc(NC(=O)c3cccc4c(=O)c5cccc(OC)c5[nH]c34)cc1)CC2,,"CD-1 mouse, male, plasma","intraperitoneal, 1 mg/kg",,AUC(0-inf),1.34 µg·h/mL
CC(C)(O)c1cc(Nc2cc(Oc3cn(C4CC4)nc3C3CCOCC3)ccn2)ccn1,measured: Cough,Japanese patients with advanced cancer,"oral, dose not given, any grade",,treatment-emergent adverse events,0%
CC(C)(C)c1cc(-n2nc3ccccc3n2)c(O)c(C(C)(C)C)c1,exposure assessment,"human, age 2-3 years, sunscreen",,,dermal uptake,2.09 ng/kg body weight/day
COc1ccc(CCC2CCCC(CCc3ccc(OC)cc3)N2C[C@@H](O)CO)cc1.Cl (stereo in doubt),,rabbit Purkinje fibres,"0.1 µM, cycle length 0.5 s",reference: baseline,action potential amplitude change,0.6 ± 5.6 mV
Cn1ncc(-c2nc(N[C@H]3CC[C@H](N)CC3)ncc2Cl)c1CC1CC1,phase I dose escalation,human patients,"dose not given, any-grade TEAE",reference: patients,acute respiratory failure incidence,3%
CCc1ccc(CC/C=C/c2ccc3c(c2)C(=O)CC3)cc1,,"Sprague-Dawley rat, female","oral, 450 mg/kg/day, 14 days",,Albumin,36.5 g/L
C=CCNc1c(O)cc2c(O)c1C[C@@H](C)C[C@H](OC)[C@H](O)[C@@H](C)/C=C(\C)[C@H](OC(N)=O)[C@@H](OC)/C=C\C=C(/C)C(=O)N2,,"unresectable or metastatic STS, GIST, other","intravenous, 150 mg/m^2",,patients with myalgia TEAE,33%
O=C1Nc2cc3[nH]nc(-c4ccncc4)c3cc2CN1Cc1ccccc1,measured: back pain,patients with advanced solid tumours,"intravenous, dose not given, both schedules pooled",,patients with TEAE,24%
COc1cc(C(=O)NC2CCN(C)CC2)c(F)cc1Nc1ncc(C(F)(F)F)c(Oc2cccc3c2C(=O)N(C)C3)n1,,"human patients, urine","oral, 50 mg single dose, geometric mean",reference: dose,fraction excreted in urine (0-24 h),3.98%
CC(C)(C)[C@H](NC(=O)[C@H](CCONC(=N)N)NC(=O)Cc1ccc(CNC(=N)N)cc1)C(=O)N[C@@H](CCONC(=N)N)C(=O)NCc1ccc(C(=N)N)cc1,,"Sprague Dawley rat, male, plasma","intraperitoneal, 2.5 mg/kg, 8 h",,concentration at time,0.126 µg/mL
CC[C@H](C)[C@H](NC(=O)[C@H](Cc1ccccc1)NC(=O)[C@H](CCC(=O)O)NC(=O)[C@H](CCCNC(=N)N)NC(=O)[C@H](C)NC(=O)[C@H](C)NC(=O)[C@H](CCC(N)=O)NC(=O)[C@H](CCC(=O)O)NC(=O)[C@H](CCC(=O)O)NC(=O)[C@H](CC(C)C)NC(=O)[C@H](Cc1ccc(O)cc1)NC(=O)[C@H](CO)NC(=O)[C@H](CO)NC(=O)[C@@H](NC(=O)[C@H](CC(=O)O)NC(=O)[C@H](CO)NC(=O)[C@@H](NC(=O)[C@H](Cc1ccccc1)NC(=O)[C@@H](NC(=O)CNC(=O)[C@H](CCC(=O)O)NC(=O)[C@H](C)NC(=O)CCc1cnc[nH]1)[C@@H](C)O)[C@@H](C)O)C(C)C)C(=O)N[C@@H](C)C(=O)N[C@@H](Cc1c[nH]c2ccccc12)C(=O)N[C@@H](CC(C)C)C(=O)N[C@H](C(=O)N[C@@H](CCCNC(=N)N)C(=O)NCC(=O)N[C@@H](CCCNC(=N)N)C(=O)N[C@@H](CCCCNC(=O)COCCOCCNC(=O)COCCOCCNC(=O)CC[C@H](NC(=O)CCCCCCCCCCCCCCCCC(=O)O)C(=O)O)C(=O)NCC(=O)NCC(=O)N[C@@H](CO)C(=O)N[C@@H](CCCCNC(=O)[C@H](CCCCNC(=O)[C@H](CCCCNc1c(NCCCCCN(O)C(=O)CCC(=O)NCCCCCN(O)C(=O)CCC(=O)NCCCCCN(O)C(C)=O)c(=O)c1=O)Nc1c(NCCCCCN(O)C(=O)CCC(=O)NCCCCCN(O)C(=O)CCC(=O)NCCCCCN(O)C(C)=O)c(=O)c1=O)NC(=O)[C@H](CCCCNc1c(NCCCCCN(O)C(=O)CCC(=O)NCCCCCN(O)C(=O)CCC(=O)NCCCCCN(O)C(C)=O)c(=O)c1=O)Nc1c(NCCCCCN(O)C(=O)CCC(=O)NCCCCCN(O)C(=O)CCC(=O)NCCCCCN(O)C(C)=O)c(=O)c1=O)C(=O)O)C(C)C [zirconium-89 labelled],ex vivo gamma counting,"Sprague-Dawley rat, male, stomach","intravenous, 1 nmol, 24 h",,tissue uptake,0.199 %ID/g and 0.232 %ID/g and 0.246 %ID/g and 0.226 %ID/g and 0.179 %ID/g
CC(C)n1c(C2CCNCC2)nc2c([N+](=O)[O-])c(Br)c(Br)cc21,,patients with AML,"125 mg, septic shock",,AE leading to discontinuation,2%
C[C@]1(CO)Cc2ncn(-c3ccc(C#N)c(Cl)c3)c2C(=O)O1,,human,"40 mg multiple doses, fasted",,subjects with drug-related dizziness,0%
CCCC(CCC)NC(=O)c1ccc2c(c1)OCO2,,"Swiss albino CD-1 mice, male, bone marrow","intraperitoneal, 350 mg/kg, 36 h",,PCE/NCE ratio,0.9
Cn1c(-c2ccc(C(N)=O)cc2F)nnc1C(C)(C)Oc1c(F)cc(Cl)cc1F,,human,"oral, 6 mg, single ascending dose",,subjects with any TEAE,50%
CCN1CCN(Cc2ccc(Nc3ncc(F)c(-c4cc(F)c5nc6n(c5c4)[C@H](C)CCC6)n3)nc2)CC1,,advanced solid tumour patients,Phase Ia monotherapy,,"Hypertriglyceridemia incidence, any grade",70.8%
COc1ccc(C[C@@H]2NC(=O)[C@H]([C@@H](C)O)NC(=O)[C@@H]3[C@@H]4CCN3C(=O)[C@@H]3Cc5cn(c6ccc(F)cc56)CCCCCCN(Cc5ccc(cc5)CCNC(=O)[C@]5(C)CCCN5C2=O)C(=O)CCC(=O)N[C@@H](C)C(=O)N[C@H](CNC(=O)CCCCC[N+](C)(C)C)C(=O)N[C@@H](Cc2cccc(c2)CNC(=O)CO4)C(=O)N3)cc1,measured: contact dermatitis,human,dose not given,,participants with adverse event,0%
CCCCCOc1ccc(-c2ccc(-c3ccc(C(=O)N[C@H]4C[C@@H](O)[C@@H](OCC[N+](C)(C)C)NC(=O)[C@@H]5[C@@H](O)[C@@H](C)CN5C(=O)[C@H]([C@@H](C)O)NC(=O)[C@H]([C@H](O)[C@@H](O)c5ccc(O)cc5)NC(=O)[C@@H]5C[C@@H](O)CN5C(=O)[C@H]([C@@H](C)O)NC4=O)cc3)cc2)cc1,,"adult ICU patients, mITT, serum","dose not given, EOT",,aspartate aminotransferase,26 U/L
O=S(=O)(Nc1ccccc1)c1ccc(NC(=S)Nc2ccccc2)cc1,measured: BA%,"male mouse, blood","oral, 80 mg/kg daily, 14 days",,blood cell fraction,0.34%
CN1C(=O)[C@@H](NC(=O)c2nnc(Cc3ccccc3)[nH]2)COc2cccnc21,phase I multiple ascending dose,"human, male and female","oral, 200 mg, 14 days",,participants with TEAE leading to death,0%
COc1ncccc1-c1cnn2ccc(N3CCN(C(=O)OC(C)C)CC3)nc12,,"rat, thermal hyperalgesia model, plasma","oral, 3 mg/kg, 180 min",,free drug concentration,7.6 nM
Cn1cc(-c2nc(N[C@@H]3CCCC[C@@H]3N)c(F)c3c2C(=O)NC3)cn1,epistaxis,patients with relapsed or refractory AML,"oral, 100 mg once daily",,adverse events,43%
CC1(C)[C@H](C=C(Cl)Cl)[C@H]1C(=O)OCc1cccc(Oc2ccccc2)c1,measured: CYP2C9,"human, age 5 years, recombinant human CYP2C9",0.1 µM,,enzyme contribution to clearance,0.85%
Cn1c(=O)c2c(ncn2C)n(C)c1=O,PAMPA,pre-coated trilayer membrane,"200 µM, 5 h, pH 7.4, donor plate, PBS",,donor concentration,148 ± 5.2 µM
CCCSc1ccc2nc(NC(=O)OC)[nH]c2c1,,"mouse, blood","oral, 50 mg/kg",,red cell distribution width (CV),14.6%
CCCC1CCC(C2CCC(c3ccc(F)c(F)c3)CC2)CC1 (stereo not drawn),,"rat, placenta","10 ng/mL in perfusate, low dose, mixture of 21 LCMs",,placental accumulation,1.23 ± 2.36 ng/g
O=c1ccc2ncc(=O)n3c2n1C[C@H]3CN1CCC(NCc2cc3c(cn2)OCCC3)CC1,,"healthy human volunteers, urine","oral, 1500 mg, arithmetic mean, alone",,AUC(0-48),4170 µg·h/mL
Cc1ccc(NS(=O)(=O)c2cccc(C(=O)NC3CCN(c4ncnc5[nH]cnc45)CC3)c2)cc1,,human,"0.01016 µM, 24 (unit not given)",,viability,100%
CCOC(=O)C1=C[C@@H](OC(CC)CC)[C@H](NC(C)=O)[C@@H](N)C1,population pharmacokinetic model,"Sprague-Dawley rats, male, plasma and urine","oral, 30 mg/kg, alone, bootstrap median",,Vd,104 mL
O=C(Nc1ccccc1)C1CCN(C(=O)Oc2cccnc2)CC1,psychotropic effects VAS,healthy women,20 mg,"reference: pre-dose baseline, direction not given",change in High score,8.5
CC(C)c1nc(N(C)S(C)(=O)=O)nc(-c2ccc(F)cc2)c1/C=C/[C@@H](O)C[C@@H](O)CC(=O)O,,healthy human subjects,"oral, dose not given, study CL-0537 safety set",,incidence of Arthralgia,0%
